Measured values collected from several papers.
Parts stem from different laboratories: compare values within a part only.
Chain of UniProt P54646 (whole entry, looked up): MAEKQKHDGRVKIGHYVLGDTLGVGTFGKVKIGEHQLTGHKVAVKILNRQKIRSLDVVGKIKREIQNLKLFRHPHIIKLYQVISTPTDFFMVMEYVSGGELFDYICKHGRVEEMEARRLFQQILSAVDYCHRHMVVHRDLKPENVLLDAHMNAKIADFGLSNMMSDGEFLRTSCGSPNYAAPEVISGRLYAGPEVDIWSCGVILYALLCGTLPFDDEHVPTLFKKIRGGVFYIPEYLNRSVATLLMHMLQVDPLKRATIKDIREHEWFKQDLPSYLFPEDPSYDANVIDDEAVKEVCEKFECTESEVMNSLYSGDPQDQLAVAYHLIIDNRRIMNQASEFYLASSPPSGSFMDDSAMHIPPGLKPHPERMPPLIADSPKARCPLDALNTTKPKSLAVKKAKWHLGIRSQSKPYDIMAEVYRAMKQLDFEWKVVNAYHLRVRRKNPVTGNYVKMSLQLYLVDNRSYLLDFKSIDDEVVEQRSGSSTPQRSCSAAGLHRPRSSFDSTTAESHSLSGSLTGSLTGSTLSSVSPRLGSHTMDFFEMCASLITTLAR
Chain of UniProt P53350 (whole entry, looked up): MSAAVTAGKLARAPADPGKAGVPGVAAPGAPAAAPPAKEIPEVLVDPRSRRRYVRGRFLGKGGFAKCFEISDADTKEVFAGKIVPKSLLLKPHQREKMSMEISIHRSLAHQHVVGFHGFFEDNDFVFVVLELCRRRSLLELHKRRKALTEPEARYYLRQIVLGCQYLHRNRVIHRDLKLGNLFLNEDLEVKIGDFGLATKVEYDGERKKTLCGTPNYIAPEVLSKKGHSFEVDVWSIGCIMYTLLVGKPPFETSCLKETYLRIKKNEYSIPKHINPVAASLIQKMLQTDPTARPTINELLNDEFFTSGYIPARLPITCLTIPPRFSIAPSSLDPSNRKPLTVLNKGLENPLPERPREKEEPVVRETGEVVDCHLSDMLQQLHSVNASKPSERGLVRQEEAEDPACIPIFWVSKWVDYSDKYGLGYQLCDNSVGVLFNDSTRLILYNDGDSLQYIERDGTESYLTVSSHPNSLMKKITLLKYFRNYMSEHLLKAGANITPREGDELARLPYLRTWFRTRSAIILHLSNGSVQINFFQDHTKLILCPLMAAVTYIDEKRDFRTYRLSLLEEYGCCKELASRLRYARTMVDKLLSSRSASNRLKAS
Chain of UniProt P10721 (whole entry, unmodified, looked up): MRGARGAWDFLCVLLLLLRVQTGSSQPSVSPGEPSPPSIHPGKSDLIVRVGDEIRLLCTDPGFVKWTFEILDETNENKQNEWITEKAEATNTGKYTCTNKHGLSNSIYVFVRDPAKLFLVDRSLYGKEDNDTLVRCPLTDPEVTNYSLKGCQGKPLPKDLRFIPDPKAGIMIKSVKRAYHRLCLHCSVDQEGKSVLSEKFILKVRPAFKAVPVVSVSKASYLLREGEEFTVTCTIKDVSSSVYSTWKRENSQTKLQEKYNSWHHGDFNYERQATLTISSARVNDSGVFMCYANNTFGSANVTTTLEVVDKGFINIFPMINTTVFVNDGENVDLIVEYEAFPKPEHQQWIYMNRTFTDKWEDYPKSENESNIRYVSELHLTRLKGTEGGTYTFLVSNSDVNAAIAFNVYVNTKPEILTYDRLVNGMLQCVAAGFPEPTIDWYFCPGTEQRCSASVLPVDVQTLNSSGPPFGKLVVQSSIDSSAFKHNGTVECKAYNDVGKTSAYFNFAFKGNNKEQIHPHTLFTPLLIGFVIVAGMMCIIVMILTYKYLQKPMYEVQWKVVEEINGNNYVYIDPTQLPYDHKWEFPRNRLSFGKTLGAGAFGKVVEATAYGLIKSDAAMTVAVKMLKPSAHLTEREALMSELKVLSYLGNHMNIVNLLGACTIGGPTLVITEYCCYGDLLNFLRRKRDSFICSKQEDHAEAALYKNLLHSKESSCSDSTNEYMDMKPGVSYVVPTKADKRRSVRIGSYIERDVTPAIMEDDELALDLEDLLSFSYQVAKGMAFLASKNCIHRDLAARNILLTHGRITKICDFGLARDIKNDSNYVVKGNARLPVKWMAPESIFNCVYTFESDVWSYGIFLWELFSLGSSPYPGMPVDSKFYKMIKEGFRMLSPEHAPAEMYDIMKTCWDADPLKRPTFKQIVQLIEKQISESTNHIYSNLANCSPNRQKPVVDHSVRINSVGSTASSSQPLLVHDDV
Chain of UniProt Q9UL54 (whole entry, looked up): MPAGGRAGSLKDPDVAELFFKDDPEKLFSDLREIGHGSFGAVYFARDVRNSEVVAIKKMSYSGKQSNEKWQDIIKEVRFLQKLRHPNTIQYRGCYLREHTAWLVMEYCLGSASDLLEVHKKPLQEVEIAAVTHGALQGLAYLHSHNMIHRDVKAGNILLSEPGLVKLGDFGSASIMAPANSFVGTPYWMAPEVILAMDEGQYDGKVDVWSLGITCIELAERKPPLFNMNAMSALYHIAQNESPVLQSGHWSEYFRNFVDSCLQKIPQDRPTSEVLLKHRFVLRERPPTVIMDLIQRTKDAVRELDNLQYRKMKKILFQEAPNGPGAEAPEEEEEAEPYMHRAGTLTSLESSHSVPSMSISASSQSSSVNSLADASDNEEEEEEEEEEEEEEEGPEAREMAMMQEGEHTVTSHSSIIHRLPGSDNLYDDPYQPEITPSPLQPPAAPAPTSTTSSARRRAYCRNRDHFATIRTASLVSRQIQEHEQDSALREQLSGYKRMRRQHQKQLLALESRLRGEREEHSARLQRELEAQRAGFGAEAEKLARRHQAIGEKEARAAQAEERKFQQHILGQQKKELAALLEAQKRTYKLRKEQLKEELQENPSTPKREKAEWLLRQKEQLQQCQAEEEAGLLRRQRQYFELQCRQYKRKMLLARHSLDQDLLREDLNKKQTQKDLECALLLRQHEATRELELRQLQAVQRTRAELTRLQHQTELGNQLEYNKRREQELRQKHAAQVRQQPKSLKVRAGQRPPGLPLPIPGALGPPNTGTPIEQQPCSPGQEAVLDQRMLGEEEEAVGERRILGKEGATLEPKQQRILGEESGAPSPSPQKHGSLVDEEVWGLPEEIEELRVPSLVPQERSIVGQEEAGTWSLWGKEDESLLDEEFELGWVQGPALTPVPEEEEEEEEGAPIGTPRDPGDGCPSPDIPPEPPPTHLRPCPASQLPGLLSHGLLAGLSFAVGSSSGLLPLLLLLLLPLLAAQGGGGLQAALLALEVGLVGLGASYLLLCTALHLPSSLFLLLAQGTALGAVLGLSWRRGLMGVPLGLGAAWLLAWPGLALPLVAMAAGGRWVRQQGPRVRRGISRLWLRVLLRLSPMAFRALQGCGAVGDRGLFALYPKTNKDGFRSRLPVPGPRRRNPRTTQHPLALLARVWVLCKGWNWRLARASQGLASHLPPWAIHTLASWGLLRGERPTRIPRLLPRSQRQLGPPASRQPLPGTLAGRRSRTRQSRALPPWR
Chain of UniProt Q04771 (whole entry, looked up): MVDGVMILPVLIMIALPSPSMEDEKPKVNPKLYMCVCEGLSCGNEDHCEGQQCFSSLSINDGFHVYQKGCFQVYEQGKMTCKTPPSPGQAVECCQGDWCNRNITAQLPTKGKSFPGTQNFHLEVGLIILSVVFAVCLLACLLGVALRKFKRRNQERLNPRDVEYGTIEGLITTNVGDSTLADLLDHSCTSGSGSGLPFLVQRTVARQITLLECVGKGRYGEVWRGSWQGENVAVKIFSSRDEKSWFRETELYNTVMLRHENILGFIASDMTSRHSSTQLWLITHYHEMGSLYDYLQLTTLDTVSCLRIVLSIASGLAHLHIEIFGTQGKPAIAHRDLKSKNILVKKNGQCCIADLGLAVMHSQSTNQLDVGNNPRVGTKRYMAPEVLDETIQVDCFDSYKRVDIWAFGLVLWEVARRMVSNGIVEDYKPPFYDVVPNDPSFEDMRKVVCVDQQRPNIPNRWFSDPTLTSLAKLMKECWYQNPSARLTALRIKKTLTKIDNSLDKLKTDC
Chain of UniProt Q96PN8 (whole entry, looked up): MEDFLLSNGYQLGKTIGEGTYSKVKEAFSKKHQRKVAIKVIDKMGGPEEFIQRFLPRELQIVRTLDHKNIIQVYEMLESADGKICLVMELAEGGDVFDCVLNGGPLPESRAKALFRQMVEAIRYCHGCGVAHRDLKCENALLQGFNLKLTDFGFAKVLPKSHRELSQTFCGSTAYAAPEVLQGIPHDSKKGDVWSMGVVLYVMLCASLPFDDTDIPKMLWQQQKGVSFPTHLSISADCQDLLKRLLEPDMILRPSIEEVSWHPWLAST

Sample 1
Structure (SMILES): O=c1nc(-c2ccccn2)sc2ccccc12
Technique: competition with immobilised ligand
Tested at: 1 µM
target	test	remaining binding [%]
5'-AMP-activated protein kinase catalytic subunit alpha-2 (PRKAA2, Homo sapiens, UniProt P54646)	cell-free assay	100
Serine/threonine-protein kinase Nek5 (NEK5, Homo sapiens, UniProt Q6P3R8)	binding	78
Receptor-type tyrosine-protein kinase FLT3 (FLT3, Homo sapiens, UniProt P36888, D835V/ITD)	binding	81
eIF-2-alpha kinase GCN2, C-terminal kinase domain (EIF2AK4, Homo sapiens, UniProt Q9P2K8, S808G)	binding	47
Serine/threonine-protein kinase PLK1 (PLK1, Homo sapiens, UniProt P53350)	binding	100
Tyrosine-protein kinase ABL1, phosphorylated (ABL1, Homo sapiens, UniProt P00519, Q252H)	binding	82
Tyrosine-protein kinase receptor Tie-1 (TIE1, Homo sapiens, UniProt P35590)	cell-free assay	91
Death-associated protein kinase 1 (DAPK1, Homo sapiens, UniProt P53355)	binding	100
Mast/stem cell growth factor receptor Kit (KIT, Homo sapiens, UniProt P10721, V559D)	binding	95
Serine/threonine-protein kinase tousled-like 1 (TLK1, Homo sapiens, UniProt Q9UKI8)	cell-free assay	93
Serine/threonine-protein kinase PAK 6 (PAK6, Homo sapiens, UniProt Q9NQU5)	cell-free assay	100
Testis-specific serine/threonine-protein kinase 3 (TSSK3, Homo sapiens, UniProt Q96PN8)	binding	86
Activin receptor type-1 (ACVR1, Homo sapiens, UniProt Q04771)	cell-free assay	79
Serine/threonine-protein kinase TAO2 (TAOK2, Homo sapiens, UniProt Q9UL54)	binding	73
Eukaryotic translation initiation factor 2-alpha kinase 1 (EIF2AK1, Homo sapiens, UniProt Q9BQI3)	binding	97
Mitogen-activated protein kinase kinase kinase 3 (MAP3K3, Homo sapiens, UniProt Q99759)	binding	77
Phosphatidylinositol 4,5-bisphosphate 3-kinase catalytic subunit gamma isoform (PIK3CG, Homo sapiens, UniProt P48736)	cell-free assay	100
Serine/threonine-protein kinase D3 (PRKD3, Homo sapiens, UniProt O94806)	binding	81
Serine/threonine-protein kinase 35 (STK35, Homo sapiens, UniProt Q8TDR2)	binding	79

Sample 2
Cell line: Huh-7
Tested at: 10 µM
Time: 24 h
Structure (SMILES)	viability [%]
CCCN(CCC)CCc1cccc2c1CC(=O)N2	95.7
CCC1(c2ccccc2)C(=O)NCNC1=O	99.7
CN1CCC(OC(c2ccccc2)c2ccccc2)CC1	98.4
COc1ccccc1OCC(O)COC(N)=O (stereo not drawn)	92.1
CCOC(=O)CCC(=O)O[C@H]1[C@H](O[C@@H]2[C@@H](C)[C@H](O[C@H]3C[C@@](C)(OC)[C@@H](O)[C@H](C)O3)[C@@H](C)C(=O)O[C@H](CC)[C@@](C)(O)[C@H](O)[C@@H](C)C(=O)[C@H](C)C[C@@]2(C)O)O[C@H](C)C[C@@H]1N(C)C	107
Cc1cc(NC(=O)C2=C(O)c3ccccc3S(=O)(=O)N2C)no1	97
C[C@H](CS)C(=O)N1CCC[C@H]1C(=O)O	96.9

Sample 3
Species: human
Sample: microsomes or S9
Tested at: 2 µM
Time: 0.5 h
Compound	remaining compound [%]
CCn1cc(NS(=O)(=O)c2cn(C)c(=O)n(C)c2=O)ccc1=O	> 100
COc1ccc(CN2CCC(C(=O)N3CCN(c4cccc(C)c4C)CC3)CC2)c(OC)c1	26.7
Cc1cc(C)cc(-n2ncc3c(=O)n(CC(=O)c4cc(C)[nH]c4C)cnc32)c1	> 100
O=S(=O)(Cc1ccccc1)N1CC[C@H](c2ccccc2)[C@H]2NCCCC[C@H]21	14.5
CC(Oc1cc(-n2nc3c(c2Cl)CCCC3)c(F)cc1Cl)C(=O)NCCO (stereo not drawn)	25.9
CCCNc1c(C(=O)OC)nc2ccc(Cl)cn12	0.0634
CN(Cc1nccs1)S(=O)(=O)c1ccc2c(c1)CN(S(C)(=O)=O)CC2	28.7
Cc1cc2nc(CN(C)c3ccccc3)cc(=O)n2o1	82.4
Cn1ccnc1-c1[nH]c(-c2ccc(Cl)cc2)nc1-c1ccc(C(C)(C)C)cc1	4.25

Sample 4
Target: BDNF/NT-3 growth factors receptor (NTRK2, Homo sapiens, UniProt Q16620)
Chain of UniProt Q16620 (whole entry, looked up): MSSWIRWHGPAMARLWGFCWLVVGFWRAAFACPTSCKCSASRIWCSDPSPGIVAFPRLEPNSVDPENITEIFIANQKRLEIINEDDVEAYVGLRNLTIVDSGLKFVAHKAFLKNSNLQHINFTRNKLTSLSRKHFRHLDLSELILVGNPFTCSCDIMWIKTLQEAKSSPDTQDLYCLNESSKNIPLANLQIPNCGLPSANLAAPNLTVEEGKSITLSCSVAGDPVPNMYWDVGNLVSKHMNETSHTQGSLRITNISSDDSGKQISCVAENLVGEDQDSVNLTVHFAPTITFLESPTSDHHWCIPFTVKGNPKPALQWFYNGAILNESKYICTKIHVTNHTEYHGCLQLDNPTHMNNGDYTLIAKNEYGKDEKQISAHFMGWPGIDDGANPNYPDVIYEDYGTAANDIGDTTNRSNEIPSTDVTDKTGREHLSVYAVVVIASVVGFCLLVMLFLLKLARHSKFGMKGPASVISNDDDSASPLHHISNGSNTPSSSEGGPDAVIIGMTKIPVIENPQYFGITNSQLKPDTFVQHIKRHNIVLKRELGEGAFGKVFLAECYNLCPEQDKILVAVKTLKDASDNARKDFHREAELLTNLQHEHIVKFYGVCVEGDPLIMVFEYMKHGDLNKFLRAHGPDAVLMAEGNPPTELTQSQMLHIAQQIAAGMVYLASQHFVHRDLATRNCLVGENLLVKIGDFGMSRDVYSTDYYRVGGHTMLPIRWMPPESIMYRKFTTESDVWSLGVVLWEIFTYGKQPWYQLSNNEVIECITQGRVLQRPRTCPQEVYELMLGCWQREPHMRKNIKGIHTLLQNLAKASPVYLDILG
Read-out: enzyme activity
Action: inhibitor
Tested at: 0.5 µM
Baseline: control
Structure (SMILES)	remaining activity
O=C1c2ccccc2-c2n[nH]c3cccc1c23	48.2%
N#C/C(=C\c1ccc(O)c(O)c1)C(=O)NCc1ccccc1	94.5%
CN(C)C[C@H]1CCn2c(c(C3=C(c4cn(C)c5ccccc45)C(=O)NC3=O)c3ccccc32)C1	102%
Cc1cc2ncc(-c3ccccc3)nc2cc1C	103%
COc1cc2ncnc(Nc3cccc(Cl)c3)c2cc1OC	93.3%
c1ccc(-c2[nH]ncc2-c2ccnc3ccccc23)nc1	112%
N#Cc1c(NC(=O)c2cccc3ccccc23)sc2c1CCCC2	100%
Cn1nc2c3c(cccc31)C(=O)c1ccccc1-2	84%
Nc1cccc(-c2cc3c(Oc4cccc(O)c4)ncnc3[nH]2)c1	95.5%
Ic1cccc(CSc2nnc(-c3ccncc3)o2)c1	91.4%
O=C(NC(NC(=S)Nc1ccc(F)c([N+](=O)[O-])c1)C(Cl)(Cl)Cl)C(c1ccccc1)c1ccccc1 (stereo not drawn)	97.7%
CCN(CC)CCNC(=O)c1c(C)[nH]c(/C=C2\C(=O)Nc3ccc(F)cc32)c1C	9.78%
C[C@@H]1CCN(C(=O)CC#N)C[C@@H]1N(C)c1ncnc2[nH]ccc12	97.1%
Cc1nc2cc3nc(-c4cccs4)cnc3cc2n1C	64.7%
O=C(Nc1cccc(Nc2nccc(Nc3cccc(C(F)(F)F)c3)n2)c1)C1CC1	71.6%
c1ccc(-c2cnc(Nc3ccc(OCCN4CCCC4)cc3)s2)cc1	50.4%
Cc1cn(-c2cc(NC(=O)c3ccc(C)c(Nc4nccc(-c5cccnc5)n4)c3)cc(C(F)(F)F)c2)cn1	85.4%
CN([C@@H](Cc1ccc(OS(=O)(=O)c2cccc3cnccc23)cc1)C(=O)N1CCN(c2ccccc2)CC1)S(=O)(=O)c1cccc2cnccc12	103%
CCN(CC)C(=O)c1ccc(Nc2nc(OCC3CCCCC3)c3[nH]cnc3n2)cc1	54.3%
O=c1cc(-c2cccc3c2Sc2ccccc2S3)oc(N2CCOCC2)c1	99.1%
COc1cc2ncnc(Nc3ccc(O)c(Br)c3)c2cc1OC	94.8%
COc1cc2c(cc1OC)-c1[nH]nc(Nc3cccc(F)c3)c1C2	102%
O=C1C(Cl)=C(N2C(=O)CCC2=O)C(=O)c2ccccc21	104%
CCOc1nc(NC(=O)Cc2cc(OC)ccc2OC)cc(N)c1C#N	102%
CCN(CC)CCNC(=O)c1c(C)[nH]c(/C=C2\C(=O)Nc3ccc(Cl)cc32)c1C	8.43%

Repeated from above (sample 1):
target	test	remaining binding [%]
eIF-2-alpha kinase GCN2, C-terminal kinase domain (EIF2AK4, Homo sapiens, UniProt Q9P2K8, S808G)	binding	47
Serine/threonine-protein kinase PLK1 (PLK1, Homo sapiens, UniProt P53350)	binding	100
Tyrosine-protein kinase ABL1, phosphorylated (ABL1, Homo sapiens, UniProt P00519, Q252H)	binding	82
Tyrosine-protein kinase receptor Tie-1 (TIE1, Homo sapiens, UniProt P35590)	cell-free assay	91
Death-associated protein kinase 1 (DAPK1, Homo sapiens, UniProt P53355)	binding	100
Mast/stem cell growth factor receptor Kit (KIT, Homo sapiens, UniProt P10721, V559D)	binding	95
